Earlier results, collected from citations in different studies.
± marks the error that the study gave.

SMILES | target or system | assay | test system | conditions | scale | measurement | value
CC1=CCC23OC2(C)CCC2C(CN(C)C)C(=O)OC2C13.Cl (stereo not drawn) | – | – | Pliss lymphosarcoma, rat | intraperitoneal and intratumoral, dose not given | – | tumour growth inhibition | 72 to 79%
CC(=N)NCc1cccc(CN)c1 | – | – | hippocampal slices | 1 µM | – | long-term potentiation | decreased
CN(C)CCCOc1cc(F)c(-c2c(Cl)nc3ncnn3c2NCC2(C)N=N2)c(F)c1 | HEK293 | – | – | 1 µM, 4 h, unit not given | reference: vehicle (DMSO) | total α-tubulin level | 0.36 ± 0.04
CC(=O)N[C@H](CSSC[C@H](N)C(=O)O)C(=O)N[C@H](C)C(=O)N[C@H](CCCNC(=N)N)C(=O)N[C@H](CCCNC(=N)N)C(=O)N[C@H](CCCNC(=N)N)C(=O)N[C@H](C)C(=O)N[C@H](CCCNC(=N)N)C(N)=O | – | – | 5/6 nephrectomized rat | dose not given | – | parathyroid gland hyperplasia | decreased
C=CC(O)c1ccc(OC)cc1 (stereo not drawn) | – | – | male rat, kidney microsomes | – | – | catalytic efficiency | 4 mL/h/g liver
COCCOCCOCCOCCC(=O)NCc1cc(CNC(=O)CCOCCOCCOCCOC)cc(-c2cc3cc4nc(c(OC)c5[nH]c(cc6nc(cc2[nH]3)CC6(C)C)cc5-c2cc(CNC(=O)CCOCCOCCOCCOC)cc(CNC(=O)CCOCCOCCOCCOC)c2)CC4(C)C)c1 | – | – | DMF | room temperature | – | intersystem crossing yield | 0.42
C=CC(OC1OC(C(=O)O)C(O)C(O)C1O)c1ccc(OC)cc1 (stereo not drawn) | – | – | male rat, liver | glucuronidation | – | catalytic efficiency | 438 mL/h/g liver
CCC1C=CC2CCN(C(=O)C3CCC4C=CC5(CCCN5C(=O)C(Cc5ccccc5Cl)NC(C)=O)C(=O)N43)C2C(=O)N1CC(=O)OC (stereo not drawn) | – | cancer cell extravasation | MDA-MB-231, transgenic zebrafish | – | concentration reducing extravasation | effective concentration | 1 µM
Cc1ccccc1-c1cc(N2CC[N+](C)([O-])CC2)ncc1N(C)C(=O)C(C)(C)c1cc(C(F)(F)F)cc(C(F)(F)F)c1 | – | – | healthy volunteers, plasma | oral, 450 mg, single dose, netupitant alone | – | Tmax | 4.47 h
[2H]C([2H])([2H])NC(=O)c1ccc(N2C(=S)N(c3ccc(C#N)c(C(F)(F)F)c3)C(=O)C2(C)C)cc1F | – | – | human, metastatic castration-resistant prostate cancer | dose not given | – | activity | active
Oc1ccc(O)c(CN(CCN(Cc2ccccn2)Cc2cc(O)ccc2O)Cc2ccccn2)c1.[Br-].[Br-].[Mn+2] | – | – | – | concentration not given, pH 7.0, water exchange | – | activation enthalpy | 5.26 kcal/mol
CO[C@@H]1[C@H](O)[C@@H](COP(=O)(O)OP(=O)([O-])OP(=O)(O)OP(=O)(O)OC[C@H]2O[C@@H](n3cnc4c(=O)[nH]c(N)nc43)[C@H](O)[C@@H]2O)O[C@H]1n1c[n+](C)c2c(O)nc(N)nc21 | – | cap-dependent translation, inhibitor | rabbit reticulocyte lysate | no preincubation | – | IC50 | 2800 ± 200 nM
C=CC(OS(=O)(=O)O)c1ccc(OC)cc1 (stereo not drawn) | – | – | human, liver | sulfonation | – | scaled Vmax | 0.06 µmol/h/g liver
CC(=O)O[C@H]1C2=C(C(=O)C(OC(=O)c3ccc([N+](=O)[O-])cc3)=C(C(C)C)C2=O)[C@@]2(C)CCCC(C)(C)[C@@H]2[C@@H]1O | MEL1 | – | – | – | – | GI50 | 5000 to 10000 nM
C[n+]1cn([C@@H]2O[C@H](COP(=O)(O)OP(=O)([O-])OP(=O)(O)OP(=O)(O)OC[C@H]3O[C@@H](n4cnc5c(=O)[nH]c(N)nc54)[C@H](O)[C@@H]3O)[C@@H](O)[C@H]2O)c2nc(N)nc(O)c21 | – | cap-dependent translation, inhibitor | rabbit reticulocyte lysate | preincubated 60 min in lysate | – | IC50 | > 20000 nM
CC#N.Cc1ccc(O)c(CN(CCN(Cc2ccccn2)Cc2ccccn2)Cc2ccccn2)c1.[Mn+2] | – | – | – | concentration not given, pH 4.8, water exchange | – | activation enthalpy | 6.31 kcal/mol
CC/C=C\C/C=C\C/C=C\C/C=C\C/C=C\C/C=C\CCC(=O)OC(CO)COP(=O)([O-])OCC[N+](C)(C)C (stereo not drawn) | – | measured: docosahexaenoic acid | normal adult mice | dietary, dose not given | reference: untreated | brain DHA level increase | > 2 fold

SMILES | target or system | assay | test system | conditions | scale | measurement | value
C[n+]1cn([C@@H]2O[C@H](COP(=O)([O-])OP(=O)(O)CP(=O)(O)OP(=O)(O)OC[C@H]3O[C@@H](n4cnc5c(=O)[nH]c(N)nc54)[C@H](O)[C@@H]3O)[C@@H](O)[C@H]2O)c2nc(N)nc(O)c21 | – | cap-dependent translation, inhibitor | rabbit reticulocyte lysate | no preincubation | – | IC50 | 4600 ± 600 nM
[2H]c1c(NS(C)(=O)=O)c([2H])c2c(C(=O)c3ccc(OCCCN(CCCC)CCCC)cc3)c(CCCC)oc2c1[2H] | – | – | dog paroxysmal AF model | dose not given, pacing cycle length 200 ms | – | inter-atrial conduction time prolongation | 13 ms
NC(=O)C1(NC(=O)[C@H](Cc2ccccc2)NC(=O)[C@@H](Cc2c[nH]c3ccccc23)NC(=O)[C@@H](Cc2csc3ccccc23)NC(=O)C2CCNCC2)CCNCC1 | – | gastric emptying acceleration | healthy human, plasma | – | – | EC50 | ~0.49 ng/mL
Cn1c2cc([S+](C)[O-])sc2c2cnn(Cc3cccc(N)c3)c(=O)c21 (stereo not drawn) | – | – | rd10 retinal explants ex vivo | concentration not given, outer nuclear layer | – | TUNEL-positive cells | decreased
CC(C)(O)c1ncc([S@](N)(=O)=NC(=O)Nc2c3c(cc4c2CCC4)CCC3)s1 | – | IL-1β release | human whole blood | plasma concentration, with: LPS | – | IC90 | 2140 nM
CN1CCN(c2cc(-c3ccccc3CO)c(N(C)C(=O)C(C)(C)c3cc(C(F)(F)F)cc(C(F)(F)F)c3)cn2)CC1 | – | – | healthy volunteers, plasma | oral, 450 mg, single dose, with: palonosetron 0.75 mg | – | Cmax | 97.7 ng/mL
CCCCCCCCCCCCCC(=O)N[C@@H](CO)C(=O)N[C@H](C(=O)N[C@@H](Cc1ccc(O)cc1)C(=O)N[C@@H](CCCNC(=N)N)C(=O)N[C@@H](CCCNC(=N)N)C(=O)NCC(=O)N[C@@H](C)C(=O)N[C@@H](CCCNC(=N)N)C(=O)N[C@@H](CCCNC(=N)N)C(=O)N[C@@H](Cc1c[nH]c2ccccc12)C(=O)N[C@@H](CCCNC(=N)N)C(=O)N[C@@H](CCCCN)C(=O)N[C@@H](CC(C)C)C(=O)O)[C@@H](C)CC | – | – | hippocampal slices | – | – | lowest dose reversing LTP maintenance | ~5 µM
CN1C(=O)[C@@H](Cc2ccc(O)cc2)NC(=O)CNC(=O)[C@H](Cc2ccc3ccccc3c2)NC(=O)[C@H](CCCNC(=N)N)NC(=O)[C@H]1CCCNC(=O)c1ccc(CNC(=O)CN2CCN(CC(=O)O)CCN(CC(=O)O)CCN(CC(=O)O)CC2)cc1 [gallium-68 labelled] | – | PET dosimetry | human patients, pancreas | – | – | absorbed dose coefficient | 0.0128 mGy/MBq
COc1cc(NC(C)=O)c2c(c1O)-c1c(OC)c(OC)cc3c1C(C2)N(C)CC3 (stereo not drawn) | – | – | mouse H22 hepatoma model | oral, 200 mg/kg/day | – | tumour growth inhibition | 52.7%
CC(C)C[C@@H](NC(=O)[C@H](C)NC(=O)CNC(=O)[C@@H](NC=O)C(C)C)C(=O)N[C@@H](C)C(=O)N[C@@H](C(=O)N[C@H](C(=O)N[C@@H](C(=O)N[C@@H](Cc1c[nH]c2ccccc12)C(=O)N[C@H](CC(C)C)C(=O)N[C@@H](Cc1c[nH]c2ccccc12)C(=O)N[C@H](CC(C)C)C(=O)N[C@@H](Cc1c[nH]c2ccccc12)C(=O)N[C@H](CC(C)C)C(=O)N[C@@H](Cc1c[nH]c2ccccc12)C(=O)NCCO)C(C)C)C(C)C)C(C)C | – | H+/Na+ exchange | EYPC/EYPG liposomes | – | – | EC50 | 4.5 nM
Cc1nc(N(C)C)nc(C)c1O | – | styrene autoxidation | – | 323 K | – | inhibition rate constant | 8.6e+06 M⁻¹ s⁻¹
CC(=O)O[C@H]1C2=C(C(=O)C(OC(=O)c3ccc(Cl)cc3)=C(C(C)C)C2=O)[C@@]2(C)CCCC(C)(C)[C@@H]2[C@@H]1OC(=O)c1ccc(Cl)cc1 | MCF7 | cell growth | – | – | – | GI50 | > 30000 nM
CC1=C(C2=C(C)C(=O)c3c(cc(O)c(O)c3C(C)C)C2=O)C(=O)c2cc(O)c(O)c(C(C)C)c2C1=O (racemic) | – | – | B6 Bcl-2-transgenic mouse | 60 µmol/kg | – | spleen size reduction | 15 ± 2%
CO[C@@H]1[C@H](O)[C@@H](COP(=O)([O-])OP(=O)(O)CP(=O)(O)OP(=O)(O)OC[C@H]2O[C@@H](n3cnc4c(=O)[nH]c(N)nc43)[C@H](O)[C@@H]2O)O[C@H]1n1c[n+](C)c2c(O)nc(N)nc21 | – | cap-dependent translation, inhibitor | rabbit reticulocyte lysate | preincubated 60 min in lysate | – | IC50 | 2900 ± 300 nM
C[C@@H](Nc1c(-c2c(F)cc(OCCCO)cc2F)c(Cl)nc2ncnn12)C(C)(C)C | HEK293 | – | – | 1 µM, 4 h, unit not given | reference: vehicle (DMSO) | total α-tubulin level | 0.96 ± 0.03
NS(=O)(=O)c1ccc(N2N=C(C(F)(F)F)CC2c2ccc(F)cc2F)cc1 (stereo not drawn) | – | PGE2 formation | rat, carrageenan model, gastric mucosa | 40 mg/kg | – | inhibition | 10%

Repeated from above:
SMILES | target or system | assay | test system | conditions | scale | measurement | value
COc1cc(NC(C)=O)c2c(c1O)-c1c(OC)c(OC)cc3c1C(C2)N(C)CC3 (stereo not drawn) | – | – | mouse H22 hepatoma model | oral, 200 mg/kg/day | – | tumour growth inhibition | 52.7%
[2H]c1c(NS(C)(=O)=O)c([2H])c2c(C(=O)c3ccc(OCCCN(CCCC)CCCC)cc3)c(CCCC)oc2c1[2H] | – | – | dog paroxysmal AF model | dose not given, pacing cycle length 200 ms | – | inter-atrial conduction time prolongation | 13 ms
